Results gathered from unrelated publications.
Each numbered part is a random draw from the data of one study; scales do not carry over between parts. Positions count from the first letter of the parent shown.

Series 1
Target: RNA binding protein fox-1 homolog 2, RRM domain, GST-SBP tag (RBFOX2, Homo sapiens, UniProt O43251-10, residues 100-194)
Technique: RNA Bind-n-Seq
Molecule type: RNA
Sample: in vitro
Tested at: 365 nM
Notes: natural RNA segment, single round, ends assumed
Relative to: no-protein control
Reading: higher = stronger binding
Quantity: RBNS enrichment (R)
Constant ends, left off below: GGGAGUUCUACAGUCCGACGAUC … UGGAAUUCUCGGGUGCCAA
Residues (chain): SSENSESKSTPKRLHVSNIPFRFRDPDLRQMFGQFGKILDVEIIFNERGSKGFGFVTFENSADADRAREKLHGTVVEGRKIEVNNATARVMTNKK
CCAGACUUGCACUGGGGUGGGAUUUGGAGUGAUGGGAAGGUUUUUAAGGGCCGGGGAUGGAUCUUUUCUAAAUGUUAUUACUUGUAAAUAAAGUCUAUUUUUCUCCCGUG: 0.854
CAAAAAAAAAAACAAAAAACAAAAAACAAAAAACAAAAAUGUUGUCACACUGGAAAUUGUACAUUUUUUUAAAGAAAAGGUAUAGUUUUAUAACUGAGAUGUACCUAAAU: 0.94
GUGUGCCCGGAUGCAUGGAUGCCUGGGUUCCUAGAUGCAUAGAUGCCUGGGUGCCUGGAUGCAUGGAUGCCUGGGUGCCCGGAUGCAUGGAUGCAUGGGUGCCCGGAUGC: 18.9
UAUUAAUCAGGGGCUGGAGGAGUAUACAUGAUUCUUGUGUUCAUGUUGUCAUUUGAAACUCUUCACAUAAAAUUUUCUAAUAUUCAUUUGGAAAACCUCUCCACUGGAGA: 0.368
GAAAAAAAUCAGUUCUGUCUUUGUGGGUUGCUCUACUAUGGAGAUCAACAGUUACUGUGACUGAGUCGGCCCAUUCUGUUUAGAAAUAUAUUUUAAAUGUUUAGUAAUUG: 0.29
CCGGCUGAUGGGGGUUUGCUCAGCACUGUGCCAGUGGAAGCAGGUGUAUUGUGGGCAGUUUUGUCAUUGUCCUCAAGUCCUUCGCAGACAGUGCACAGCCUGCUGUCUGC: 0.487
ACUAGCUGUUAUGUUAUGAUUUUAUUCUUUGUGAGUUAAUUAGAAUAAAGUCAUUUUCUUCCAAGGUUGGUUCAUUUAGUCUAUAGUCUCUGGUUAUGAAAUUAGCAUCC: 1.21
UCCUGCAGAAGUGGCCCUGGAGAUUGAGGGUCCCUGGACACUCCCUAUGGAGAUCCGGGGAGCUAGGAUGGGGAACCUGCCACAGCCAGAACUGAGGGGCUGGCCCCAGG: 0.483

Series 2
Target: CCNB3, cyclin fold, Cln2 fusion (human)
Technique: yeast growth competition, sequencing
Sample: yeast
Notes: weak parent motif
Relative to: not given
Reading: higher = stronger binding
Quantity: normalised enrichment score
Starting sequence: CDKN1B docking peptide (human); PSACRNLFGPVDH
PSACRMLFGPVDH [N6M]: 0.347
PSACRNLFGPVDD [H13D]: 0.13
PEACRNLFGPVDH [S2E]: 0.343
ESACRNLFGPVDH [P1E]: 0.189
PSACRNLFGPVGH [D12G]: 0.581
PSACRNLFGPVDN [H13N]: 0.237
PHACRNLFGPVDH [S2H]: 0.0927
PSACRRLFGPVDH [N6R]: 0.175
PSACRNLEGPVDH [F8E]: -0.0525
PSACENLFGPVDH [R5E]: 0.406
PSACRNLFGPVNH [D12N]: 0.538
PSACRNLFGSVDH [P10S]: 0.311
PSACRNLTGPVDH [F8T]: -0.0139
PSACANAFGPVDH [R5A L7A]: -0.1
PSACRILFGPVDH [N6I]: 0.759
PSACRGLFGPVDH [N6G]: 0.163
PSAYRNLFGPVDH [C4Y]: 0.145
PSACINLFGPVDH [R5I]: 0.149
PSACRNLFGPVAH [D12A]: 0.743
PSACRNLFGPLDH [V11L]: 0.276
PSACRNLFGPVDG [H13G]: 0.307
PQACRNLFGPVDH [S2Q]: 0.297
PSACRNLFHPVDH [G9H]: 0.414
PSCCRNLFGPVDH [A3C]: 0.543
PLACRNLFGPVDH [S2L]: 0.515

Series 3
Target: ABI1, truncated, D143A, DHFR fusion (Arabidopsis thaliana)
Technique: DHFR PCA, deep sequencing
Sample: yeast
Notes: methotrexate growth selection, single substitutions
Added: (+)-ABA 0.39 µM
Relative to: wild-type fitted maximum
Reading: higher = stronger binding
Quantity: relative binding score
Starting sequence: PYL1, truncated, DHFR fusion (Arabidopsis thaliana); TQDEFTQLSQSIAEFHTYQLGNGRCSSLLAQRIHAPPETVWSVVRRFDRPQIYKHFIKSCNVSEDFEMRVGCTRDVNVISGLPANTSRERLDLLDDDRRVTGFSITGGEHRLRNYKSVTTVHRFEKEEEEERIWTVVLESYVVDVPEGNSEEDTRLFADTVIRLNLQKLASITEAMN; partner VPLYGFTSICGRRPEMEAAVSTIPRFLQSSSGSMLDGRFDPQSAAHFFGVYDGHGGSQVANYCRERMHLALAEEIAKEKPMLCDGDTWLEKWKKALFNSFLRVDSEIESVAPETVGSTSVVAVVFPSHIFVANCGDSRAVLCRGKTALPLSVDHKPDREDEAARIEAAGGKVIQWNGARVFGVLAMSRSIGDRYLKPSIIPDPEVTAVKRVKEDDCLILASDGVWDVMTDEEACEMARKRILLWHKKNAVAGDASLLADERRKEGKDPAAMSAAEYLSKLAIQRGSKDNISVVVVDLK
S9K: 67.5%
S27L: -0.927%
S87N: 5.9%
Y18G: -4.24%
A170W: -4.72%
V145F: -32.5%
Y115N: -0.181%
R99H: 47.8%
L29K: -9.64%
T135P: 2.46%
V118A: 16.4%
E139L: 16.6%
F15V: -2.16%
L82S: -0.149%
G107Q: 3.37%
S150F: -34.1%

Series 4
Target: Ras GTPase-activating protein-binding protein 1, RRM domain (G3BP1, Homo sapiens, UniProt Q13283)
Chain of UniProt Q13283 (whole entry, looked up): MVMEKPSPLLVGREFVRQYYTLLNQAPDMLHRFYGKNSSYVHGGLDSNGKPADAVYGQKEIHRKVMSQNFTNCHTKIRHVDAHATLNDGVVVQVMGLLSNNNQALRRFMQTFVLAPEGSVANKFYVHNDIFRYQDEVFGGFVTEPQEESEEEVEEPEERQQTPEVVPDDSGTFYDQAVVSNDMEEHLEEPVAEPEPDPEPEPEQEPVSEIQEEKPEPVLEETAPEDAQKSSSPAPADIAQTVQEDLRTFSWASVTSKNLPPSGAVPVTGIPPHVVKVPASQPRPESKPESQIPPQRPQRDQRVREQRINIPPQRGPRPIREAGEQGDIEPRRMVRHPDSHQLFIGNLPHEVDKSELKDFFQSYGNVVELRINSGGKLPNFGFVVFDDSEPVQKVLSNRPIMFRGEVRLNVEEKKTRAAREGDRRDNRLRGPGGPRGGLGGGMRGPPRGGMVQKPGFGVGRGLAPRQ
Technique: RNA Bind-n-Seq
Molecule type: RNA
Sample: in vitro
Tested at: 1 µM
Notes: whole 134-nt RNA, ends assumed
Added: 150 mM KCl
Relative to: input library
Reading: higher = stronger binding
Quantity: log2 enrichment
Constant ends, left off below: GGGAGUUCUACAGUCCGACGAUC … UGGAAUUCUCGGGUGUCAAGG
UGUGAGCGGAGCCUGGAGGAGCUGCUGCACUACGUGGGCCAGCUGCGGGCUGAGCUGGCCAGCGCAGGUGGGUGGCCACCCUUGCAAGUG: -0.411
CAAGUCCUGUGCUACACAUCGUAUGUACCGAAUCGGGGAAAGGGAAAGGAAAGGGGAAAGUAUUAUGUUACGCCGUUCGGAUCUGCACUU: 0.259
AGUCCUGUGCUACACAUCGUAUGUACCGAAUCGGGAGGGAAAAAAAGGGUUUUUGGGAAAGUAUUAUGUUACGCCGUUCGGAUCUGCACU: 0.269
AGUCCUGUGCUACACAUCGUAUGUACCGAAUCAAAGUGUGUGUGUGUGUGUGUGUAAAAAAGUAUUAUGUUACGCCGUUCGGAUCUGCAC: 0.0388
UGGCCCUGGUGGCAUGCGGGGAGGAAGAGGUGGCCUCAUGGAUCCUGGUGGUCCCGGUGGAAUGUUCAGAGGUGGCCGUGGUGGAGACAG: 1.13
GUCCUGUGCUACACAUCGUAUGUACCGAAUCGGGCCCCCGGCCCCCGGGGCCCCCGGGAAAGUAUUAUGUUACGCCGUUCGGAUCUGCAC: -0.744
UGUGCUACACAUCGUAUGUACCGAAUCGGGGAAAAAGGGGAAAAAAAGGGGAAAAAAAGGGGAAAGUAUUAUGUUACGCCGUUCGGAUCU: 1.15
ACCAUGCAGGUGGGCAUCUUUGGGAAGUGGGGCAAGGGGGGGAUAGGGAGGGGGGUAACACUUUGGGAAAAAGUGGUCCCAGGUCGUUUC: -0.518
UAACUUUAGAGGAGGAUCUGAUUGAUAUGGCAGUGGACGUGGAUUUGGGGAUGGCUAUAAUGGGUAUGGAGGAGGACCUGGAGGUGGCAA: -0.768

Repeated from above (series 2):
PSACRMLFGPVDH [N6M]: 0.347
PSACRNLFGPVDD [H13D]: 0.13
PEACRNLFGPVDH [S2E]: 0.343
ESACRNLFGPVDH [P1E]: 0.189
PSACRNLFGPVGH [D12G]: 0.581
PSACRNLFGPVDN [H13N]: 0.237
